Results gathered from unrelated publications.
Each line is one published result; not all experiments were run side by side.
Cell line: UACC-62

SMILES | test | conditions | how to read | measurement | result
CC/C=C\C/C=C\C/C=C\C/C=C\C/C=C\C/C=C\CCC(=O)Nc1ccn(C2OC(CO)C(O)C2(F)F)c(=O)n1 (centres unmarked) | cell growth or viability, SRB |  |  | GI50 | 49.4 nM
CC(=C(c1ccc(O)cc1)c1ccc(Cl)cc1)c1ccc(Cl)cc1 | cell growth or viability, SRB |  |  | GI50 | 500 nM
COc1ccc2c(c1)/C(=N\Nc1nnc3n1N=C(c1ccccc1)CS3)C(=O)N2 | cell growth or viability, SRB | 10 µM |  | inhibition | 23%
C=CCc1ccc(O)c(-c2cc(CC=C)ccc2OCCCCCCCCCC[P+](c2ccccc2)(c2ccccc2)c2ccccc2)c1 | autophagy, immunoblotting | 0.5 µM, 24 h |  | LC3-II/LC3-I ratio | 3.2
CC(=O)OC[C@H]1O[C@@H](Sc2sc(C(=O)c3ccc(Br)cc3)c(N)c2-c2nc3ccccc3s2)[C@H](OC(C)=O)[C@@H](OC(C)=O)[C@@H]1OC(C)=O | SRB | 10 µM, 48 h | baseline: untreated | growth | 89.3%
COc1ccc(C2=Nn3c(NN=C4C(=O)N(Cc5ccccc5)c5ccc(Cl)cc54)nnc3SC2)cc1 | cell growth or viability, SRB | 10 µM |  | inhibition | 21%
CC(Cc1ccc(Cl)cc1)=C(c1ccc(Cl)cc1)c1ccc(OCCN(C)C)cc1 | cell growth or viability, SRB |  |  | GI50 | 5190 nM
CC(=O)OC[C@H]1O[C@@H](Sc2sc(C(=O)c3ccc(C)cc3)c(N)c2-c2nc3ccccc3s2)[C@H](OC(C)=O)[C@@H](OC(C)=O)[C@H]1OC(C)=O | SRB | 10 µM, 48 h | baseline: untreated | growth | 57.3%

Excerpt of the above:
SMILES | test | conditions | how to read | measurement | result
COc1ccc(C2=Nn3c(NN=C4C(=O)N(Cc5ccccc5)c5ccc(Cl)cc54)nnc3SC2)cc1 | cell growth or viability, SRB | 10 µM |  | inhibition | 21%
